Literature values that unrelated publications cite.
Each line is one published result; not all experiments were run side by side. Several values in a cell are separate wells, animals, samples, runs or records. ± gives the spread as reported.
Sequence of UniProt Q99814 (whole entry, looked up): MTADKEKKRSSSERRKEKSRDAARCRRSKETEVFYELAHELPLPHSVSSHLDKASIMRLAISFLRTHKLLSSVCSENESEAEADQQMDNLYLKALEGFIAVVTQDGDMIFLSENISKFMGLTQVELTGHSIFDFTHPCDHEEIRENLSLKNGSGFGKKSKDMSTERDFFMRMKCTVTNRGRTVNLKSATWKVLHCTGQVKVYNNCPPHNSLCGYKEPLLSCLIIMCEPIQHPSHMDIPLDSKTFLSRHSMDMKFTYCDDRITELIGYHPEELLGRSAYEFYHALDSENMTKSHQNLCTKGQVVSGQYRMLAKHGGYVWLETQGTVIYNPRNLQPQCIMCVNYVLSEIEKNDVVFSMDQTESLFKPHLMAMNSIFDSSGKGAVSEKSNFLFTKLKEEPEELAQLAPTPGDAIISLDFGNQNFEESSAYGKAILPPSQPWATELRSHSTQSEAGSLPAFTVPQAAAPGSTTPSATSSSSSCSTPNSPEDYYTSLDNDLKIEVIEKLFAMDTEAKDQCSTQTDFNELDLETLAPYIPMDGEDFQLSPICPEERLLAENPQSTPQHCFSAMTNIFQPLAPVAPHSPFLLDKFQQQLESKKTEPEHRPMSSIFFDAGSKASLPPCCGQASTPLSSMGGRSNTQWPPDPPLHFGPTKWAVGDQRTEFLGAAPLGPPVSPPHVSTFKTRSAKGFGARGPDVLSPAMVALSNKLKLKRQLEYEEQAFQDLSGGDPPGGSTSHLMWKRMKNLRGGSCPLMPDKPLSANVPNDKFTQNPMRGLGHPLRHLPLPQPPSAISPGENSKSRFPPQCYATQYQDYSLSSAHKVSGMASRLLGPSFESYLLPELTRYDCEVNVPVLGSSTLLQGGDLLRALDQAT

Under “binding affinity relative to pregabalin”, `NC[C@@]1(CC(=O)O)[C@@H]2CC[C@H]3C[C@@H]2[C@@H]1C3` is recorded as about 23 fold (voltage-gated calcium channel α2δ subunit; concentration not given, together with: [3H]gabapentin; baseline: compound over pregabalin).
For `C[C@@H](O)[C@@H]1NC(=O)[C@H](CCCCN)NC(=O)[C@@H](Cc2c[nH]c3ccccc23)NC(=O)[C@H](Cc2ccc(O)cc2)NC(=O)[C@H](NC(=O)[C@H](Cc2ccc([N+](=O)[O-])cc2)NC(=O)CN2CCCN3CCN(CCCN(CC(=O)O)CC3)CC2)CSSC[C@@H](C(=O)N[C@H](Cc2ccc(O)cc2)C(N)=O)NC1=O` [copper-64 labelled], the Bmax ratio was over 14 fold (AR-42J rat pancreatic tumour cells; receptor binding; baseline: antagonist over agonist).
`C[N+](C)(C)c1ccc2c(c1)C#Cc1ccc([N+](C)(C)C)cc1C#C2.O=C([O-])C(F)(F)F.O=C([O-])C(F)(F)F` — result for “second-order rate constant”: 0.171 M⁻¹ s⁻¹ and 0.176 M⁻¹ s⁻¹ (UV spectroscopy; methanol; room temperature, together with: benzyl azide).
For `O=[N+]([O-])c1cc(C(F)(F)F)ccc1NCc1ccco1`, the koff was 2.5 ± 0.1 s⁻¹ (Endothelial PAS domain-containing protein 1, PAS-B domain (EPAS1, Homo sapiens, UniProt Q99814); binding; PAS-B domain, wild type).
`C/C=C/C[C@H](C)[C@@H](OC)[C@@H](C)[C@H](O)C[C@H]1OC(=O)C=C[C@H]1CC`: activity “inactive” (normal lung fibroblasts; concentration not given).
For `C[C@@H](O)[C@H](NC(=O)[C@@H]1CSSC[C@H](NC(=O)[C@@H](Cc2ccccc2)NC(=O)CN2CCCN3CCN(CCCN(CC(=O)O)CC3)CC2)C(=O)N[C@@H](Cc2ccc(O)cc2)C(=O)N[C@H](Cc2c[nH]c3ccccc23)C(=O)N[C@@H](CCCCN)C(=O)N[C@@H]([C@@H](C)O)C(=O)N1)C(=O)O` [copper-64 labelled], the Bmax was 1600 fmol/mg (AR-42J rat pancreatic tumour cells; receptor binding).
`CN(C)c1cccc2c1C#Cc1cccc(N(C)C)c1C#C2` — result for “second-order rate constant”: 0.0383 M⁻¹ s⁻¹ and 0.039 M⁻¹ s⁻¹ (UV spectroscopy; methanol; room temperature, together with: benzyl azide).
Under activity class, `CC#C[C@]1(O)CC[C@H]2[C@@H]3CCC4=CC(=O)CCC4=C3[C@@H](c3ccc(N(C)C)cc3)C[C@@]21C` is recorded as “inactive” (Toxoplasma gondii; parasite growth; concentration not given, published screen).
